Measured values gathered from unrelated publications.
Parts stem from different laboratories: compare values within a part only. Numbers after ± are the reported error.
Chain of UniProt P35626 (whole entry, looked up): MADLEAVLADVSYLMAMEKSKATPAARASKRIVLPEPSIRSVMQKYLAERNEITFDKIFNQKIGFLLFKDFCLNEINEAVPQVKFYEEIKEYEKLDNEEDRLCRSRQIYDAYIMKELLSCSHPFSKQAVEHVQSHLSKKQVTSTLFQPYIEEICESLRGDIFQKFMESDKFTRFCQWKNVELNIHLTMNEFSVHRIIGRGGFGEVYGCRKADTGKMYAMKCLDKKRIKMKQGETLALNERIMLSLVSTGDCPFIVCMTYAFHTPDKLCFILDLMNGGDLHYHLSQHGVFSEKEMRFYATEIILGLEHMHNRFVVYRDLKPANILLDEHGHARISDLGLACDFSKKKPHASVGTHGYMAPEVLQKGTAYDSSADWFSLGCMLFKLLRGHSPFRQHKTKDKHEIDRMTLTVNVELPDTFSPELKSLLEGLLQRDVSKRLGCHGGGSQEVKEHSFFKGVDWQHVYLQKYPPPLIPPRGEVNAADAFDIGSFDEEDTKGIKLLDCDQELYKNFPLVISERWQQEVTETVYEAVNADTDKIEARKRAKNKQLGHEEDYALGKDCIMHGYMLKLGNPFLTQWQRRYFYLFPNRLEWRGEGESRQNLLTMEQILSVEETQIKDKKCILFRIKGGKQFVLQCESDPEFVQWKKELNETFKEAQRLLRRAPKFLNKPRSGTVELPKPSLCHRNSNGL

Series 1
SMILES: COc1cc(C(=O)N2CCC(N3CCN(C)CC3)CC2)ccc1Nc1ncc2c(n1)N(C)c1ccccc1C(=O)N2C
Read-out: kinase activity
target	concentration	remaining activity [%]
p38b MAPK	10 µM	45 ± 1
HIPK3	10 µM	102
PAK5	1 µM	84 ± 4
PKCz	10 µM	104
DYRK3	1 µM	95
MLK1	1 µM	87 ± 5
CK1	10 µM	85 ± 1
CLK2	10 µM	69 ± 1
NEK2a	10 µM	110 ± 3

Series 2
Host: mouse
Medium: microsomes or S9
Concentration: 2 µM
Time: 0.5 h
SMILES	remaining compound [%]
CC(C)CCn1cc(C(=O)N2CCN(c3ccccn3)CC2)c2ccccc2c1=O	< 1
CC(C)(C)c1csc(NNC(=O)c2ccc(Br)cc2)n1	< 1
COc1cc(Br)ccc1C1NCCc2c1[nH]c1ccccc21 (stereo not drawn)	0.426
c1ccc(-c2nnc3n2CCN(c2ccc4nccnc4n2)C3)cc1	99.1
CCCc1nnsc1C(=O)NC1CC(=O)N(C2CC2)C1 (stereo not drawn)	48.7
COc1ccc2nc(O)c(-c3c4oc5cc(O)ccc5c4nc4c3c(=O)[nH]n4C3CCCCCCC3)cc2c1	64.3
Cc1ccc(-c2nc(C(=O)N=C(N)N)c(C)[nH]2)cc1	24.3
CC(C)N(C1=CC(=O)OC12CCCCC2)C(C)C	6.24

Series 3
Cell line: HaCaT
Concentration: 100 µM
Time: 18 h
SMILES	viability
CC(C)NCC(O)COc1cccc2[nH]ccc12 (stereo not drawn)	110%
Cc1cc(=O)oc2cc(O)ccc12	53.7%
O=C(Oc1ccccc1C(=O)O)c1ccccc1O	116%
CC1(C)C[C@@H]1C(=O)N/C(=C\CCCCSC[C@H](N)C(=O)O)C(=O)O	111%
C#C[C@]1(O)CC[C@H]2[C@@H]3CCc4cc(OC5CCCC5)ccc4[C@H]3CC[C@@]21C	15.8%
OCCN1CCN(CC/C=C2/c3ccccc3Sc3ccc(C(F)(F)F)cc32)CC1	16.9%

Mixed results
Compound	target	read-out	method	measurement	value
O=C1NC(c2ccccn2)Sc2ccccc21 (stereo not drawn)	G protein-coupled receptor kinase 3 (GRK3, Homo sapiens, UniProt P35626)	binding	competition with immobilised ligand	Kd	> 10 µM
